Experimental data gathered from unrelated publications.
Each numbered part is a random draw from the data of one study; scales do not carry over between parts. Positions count from the first letter of the parent shown.
Chain of UniProt P28566 (whole entry, looked up): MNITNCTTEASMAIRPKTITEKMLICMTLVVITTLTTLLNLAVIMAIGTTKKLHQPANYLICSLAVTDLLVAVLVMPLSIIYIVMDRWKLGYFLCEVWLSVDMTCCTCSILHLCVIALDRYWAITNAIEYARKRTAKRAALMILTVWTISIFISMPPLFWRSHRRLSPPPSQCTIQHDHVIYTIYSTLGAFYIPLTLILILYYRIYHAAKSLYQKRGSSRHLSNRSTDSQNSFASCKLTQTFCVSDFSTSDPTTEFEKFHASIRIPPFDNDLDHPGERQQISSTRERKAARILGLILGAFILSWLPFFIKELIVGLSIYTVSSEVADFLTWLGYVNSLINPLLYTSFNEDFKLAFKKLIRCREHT
Chain of UniProt Q9NWH9 (360-485, looked up): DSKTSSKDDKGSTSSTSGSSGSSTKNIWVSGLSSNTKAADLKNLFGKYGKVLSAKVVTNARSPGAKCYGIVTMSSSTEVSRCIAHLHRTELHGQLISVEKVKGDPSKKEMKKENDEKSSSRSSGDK

Study 1
Target: inorganic phosphate, free oxyanion
Method: microfluidic competitive inhibition
Matrix: in vitro, cell-free expressed
Concentration: not given
Setting: derived from inhibition constants, unchanged parent 615000 nM
Reading: lower = stronger binding
Parent: PafA, mature enzyme, eGFP fusion (Elizabethkingia meningoseptica, UniProt Q9KJX5); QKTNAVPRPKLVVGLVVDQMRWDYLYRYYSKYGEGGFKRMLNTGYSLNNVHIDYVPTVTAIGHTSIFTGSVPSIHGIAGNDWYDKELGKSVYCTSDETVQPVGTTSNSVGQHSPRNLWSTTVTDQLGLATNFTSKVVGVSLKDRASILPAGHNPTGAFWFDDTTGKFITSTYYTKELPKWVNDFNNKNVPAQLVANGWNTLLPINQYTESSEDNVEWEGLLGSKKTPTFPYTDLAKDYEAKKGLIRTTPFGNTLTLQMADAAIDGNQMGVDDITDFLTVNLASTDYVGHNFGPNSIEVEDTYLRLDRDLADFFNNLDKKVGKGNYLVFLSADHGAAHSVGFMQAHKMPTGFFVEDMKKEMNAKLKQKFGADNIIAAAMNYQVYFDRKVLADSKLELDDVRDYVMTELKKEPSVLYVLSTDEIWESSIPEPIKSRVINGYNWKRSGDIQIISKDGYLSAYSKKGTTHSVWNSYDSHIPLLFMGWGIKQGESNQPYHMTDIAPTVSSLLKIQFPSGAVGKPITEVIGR
| Variant | phosphate dissociation constant |
| --- | --- |
| L309V | 627 µM |
| Y207V | 427 µM |
| K508V | 421 µM |
| D420G | 540 µM |
| V139G | 501 µM |
| W423V | 665 µM |
| F167V | 601 µM |
| I476V | 522 µM |

Study 2
Target: CCNB3, cyclin fold, Cln2 fusion (human)
Method: yeast growth competition, sequencing
Matrix: yeast
Setting: strong parent motif
Reference: not given
Reading: higher = stronger binding
Parent: viral docking peptide; TSVRRALFTGGSD
| Variant | normalised enrichment score |
| --- | --- |
| TSVYRALFTGGSD [R4Y] | 0.465 |
| TSVRRALVTGGSD [F8V] | 0.0505 |
| TSFRRALFTGGSD [V3F] | 0.235 |
| TSSRRALFTGGSD [V3S] | -0.0994 |
| TSVRRALFPGGSD [T9P] | 2.28 |
| TSVRKALLTGGSD [R5K F8L] | 0.281 |
| TSVRRALFTGESD [G11E] | 2.32 |
| TSVRRALFTGKSD [G11K] | 1.51 |

Mixed results
| Molecule | tested on | test | test system | conditions | scale | endpoint | value |
| --- | --- | --- | --- | --- | --- | --- | --- |
| O=C1CCC(N2Cc3c(ccc4c3OCC43CCN(Cc4ccccc4)CC3)C2=O)C(=O)N1 (stereo not shown) | – | – | male Sprague Dawley rats, plasma | intravenous, 1 mg/kg, 0.25 h | – | plasma concentration | 372 ng/mL |
| AAAAAAAA (biotin) | SAFB-like transcription modulator, RRM domain (SLTM, Homo sapiens, UniProt Q9NWH9, residues 360-485) | protein domain microarray | RNA, in vitro | not given, poly(A) 8-mer RNA, whole probe, immobilized GST-fusion domains, most near background | reference: GST loading signal, higher = stronger binding | signal ratio | 0.0377 |
| N#CC1(c2ccccn2)CCN(Cc2cc(C(=O)O)c(=O)n3ccccc23)CC1 | HTR1E (Homo sapiens, UniProt P28566) | cell-free assay | – | 10 µM | – | inhibition | -10.1% |

A few entries again (study 2):
| Variant | normalised enrichment score |
| --- | --- |
| TSVRKALLTGGSD [R5K F8L] | 0.281 |
| TSVRRALFTGESD [G11E] | 2.32 |
